Measured values pooled from the literature.
Protocols differ between the studies behind these lines.
ache: Acetylcholinesterase (ache, Electrophorus electricus, UniProt O42275)
Chain of UniProt O42275 (whole entry, looked up): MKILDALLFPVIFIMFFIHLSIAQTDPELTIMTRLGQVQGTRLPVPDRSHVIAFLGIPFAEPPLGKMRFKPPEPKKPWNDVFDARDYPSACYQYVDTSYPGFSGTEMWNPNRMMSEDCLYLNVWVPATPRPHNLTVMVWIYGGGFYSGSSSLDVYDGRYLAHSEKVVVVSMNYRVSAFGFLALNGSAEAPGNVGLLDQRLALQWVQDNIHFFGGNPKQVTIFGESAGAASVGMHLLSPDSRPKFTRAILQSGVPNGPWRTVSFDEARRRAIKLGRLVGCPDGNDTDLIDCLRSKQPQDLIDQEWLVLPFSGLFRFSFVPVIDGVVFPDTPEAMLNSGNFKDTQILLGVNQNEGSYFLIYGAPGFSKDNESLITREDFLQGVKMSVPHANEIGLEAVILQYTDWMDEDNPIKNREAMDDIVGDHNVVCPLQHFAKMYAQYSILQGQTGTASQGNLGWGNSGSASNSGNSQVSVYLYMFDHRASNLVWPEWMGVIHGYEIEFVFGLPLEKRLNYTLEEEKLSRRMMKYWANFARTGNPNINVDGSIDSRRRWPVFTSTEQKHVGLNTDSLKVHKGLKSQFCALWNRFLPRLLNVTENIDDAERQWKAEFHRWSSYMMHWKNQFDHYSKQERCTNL
Chain of UniProt Q13882 (whole entry, looked up): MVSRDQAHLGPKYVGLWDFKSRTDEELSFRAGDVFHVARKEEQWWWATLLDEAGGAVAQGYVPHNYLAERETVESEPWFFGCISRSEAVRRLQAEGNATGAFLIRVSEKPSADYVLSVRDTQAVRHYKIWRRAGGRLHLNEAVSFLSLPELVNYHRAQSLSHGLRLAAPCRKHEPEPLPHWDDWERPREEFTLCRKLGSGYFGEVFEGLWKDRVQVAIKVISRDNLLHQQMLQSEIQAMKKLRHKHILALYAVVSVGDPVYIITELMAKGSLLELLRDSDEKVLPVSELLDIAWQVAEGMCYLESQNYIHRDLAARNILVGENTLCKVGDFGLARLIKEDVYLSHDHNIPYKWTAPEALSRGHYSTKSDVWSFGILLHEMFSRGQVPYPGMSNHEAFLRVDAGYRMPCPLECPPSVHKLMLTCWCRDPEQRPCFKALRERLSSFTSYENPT
Chain of UniProt P54762 (whole entry, looked up): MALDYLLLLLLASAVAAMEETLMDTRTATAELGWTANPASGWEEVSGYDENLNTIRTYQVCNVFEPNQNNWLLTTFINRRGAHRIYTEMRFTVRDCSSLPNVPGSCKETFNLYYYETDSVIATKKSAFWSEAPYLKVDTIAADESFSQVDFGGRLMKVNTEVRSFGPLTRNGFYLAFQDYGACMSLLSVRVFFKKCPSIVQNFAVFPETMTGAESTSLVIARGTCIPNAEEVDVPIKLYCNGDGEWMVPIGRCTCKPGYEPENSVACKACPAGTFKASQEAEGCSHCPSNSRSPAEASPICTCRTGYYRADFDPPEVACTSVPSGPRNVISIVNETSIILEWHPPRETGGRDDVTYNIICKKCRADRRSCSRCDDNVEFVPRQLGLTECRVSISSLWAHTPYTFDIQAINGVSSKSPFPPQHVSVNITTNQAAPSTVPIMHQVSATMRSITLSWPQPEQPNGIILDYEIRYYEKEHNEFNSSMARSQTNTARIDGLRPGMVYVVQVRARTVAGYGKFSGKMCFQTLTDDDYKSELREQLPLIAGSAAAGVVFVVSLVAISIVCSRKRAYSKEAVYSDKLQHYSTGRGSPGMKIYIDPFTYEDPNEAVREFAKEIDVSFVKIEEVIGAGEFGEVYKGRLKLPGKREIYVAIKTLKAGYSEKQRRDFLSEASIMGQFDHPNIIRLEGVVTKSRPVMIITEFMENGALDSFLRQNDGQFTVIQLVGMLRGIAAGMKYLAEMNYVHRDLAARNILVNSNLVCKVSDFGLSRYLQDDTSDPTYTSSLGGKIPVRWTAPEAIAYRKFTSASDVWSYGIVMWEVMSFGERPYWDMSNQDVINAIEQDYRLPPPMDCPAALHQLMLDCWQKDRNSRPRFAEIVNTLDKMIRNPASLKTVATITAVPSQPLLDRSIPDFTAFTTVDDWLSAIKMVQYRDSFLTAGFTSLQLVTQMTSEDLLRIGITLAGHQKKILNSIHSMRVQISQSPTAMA
Chain of UniProt O13828 (whole entry, looked up): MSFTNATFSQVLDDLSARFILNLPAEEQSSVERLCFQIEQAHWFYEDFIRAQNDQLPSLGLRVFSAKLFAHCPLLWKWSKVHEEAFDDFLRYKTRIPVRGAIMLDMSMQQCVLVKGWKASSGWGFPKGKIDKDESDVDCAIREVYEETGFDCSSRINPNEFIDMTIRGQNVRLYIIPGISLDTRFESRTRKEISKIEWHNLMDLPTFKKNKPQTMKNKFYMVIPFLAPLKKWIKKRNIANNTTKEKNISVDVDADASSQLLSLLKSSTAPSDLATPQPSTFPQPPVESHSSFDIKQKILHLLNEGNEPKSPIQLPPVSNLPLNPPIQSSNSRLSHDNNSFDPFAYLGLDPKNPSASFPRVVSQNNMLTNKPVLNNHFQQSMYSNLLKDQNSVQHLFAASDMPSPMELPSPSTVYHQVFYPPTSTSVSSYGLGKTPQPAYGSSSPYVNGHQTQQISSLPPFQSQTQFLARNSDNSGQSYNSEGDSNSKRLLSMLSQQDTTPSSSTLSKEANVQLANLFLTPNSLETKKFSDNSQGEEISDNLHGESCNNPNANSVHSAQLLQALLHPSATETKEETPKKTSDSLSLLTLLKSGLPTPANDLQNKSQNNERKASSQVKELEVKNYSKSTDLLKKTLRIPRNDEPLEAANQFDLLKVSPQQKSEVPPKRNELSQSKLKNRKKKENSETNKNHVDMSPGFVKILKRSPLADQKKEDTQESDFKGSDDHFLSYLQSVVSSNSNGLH
Chain of UniProt P03372 (whole entry, looked up): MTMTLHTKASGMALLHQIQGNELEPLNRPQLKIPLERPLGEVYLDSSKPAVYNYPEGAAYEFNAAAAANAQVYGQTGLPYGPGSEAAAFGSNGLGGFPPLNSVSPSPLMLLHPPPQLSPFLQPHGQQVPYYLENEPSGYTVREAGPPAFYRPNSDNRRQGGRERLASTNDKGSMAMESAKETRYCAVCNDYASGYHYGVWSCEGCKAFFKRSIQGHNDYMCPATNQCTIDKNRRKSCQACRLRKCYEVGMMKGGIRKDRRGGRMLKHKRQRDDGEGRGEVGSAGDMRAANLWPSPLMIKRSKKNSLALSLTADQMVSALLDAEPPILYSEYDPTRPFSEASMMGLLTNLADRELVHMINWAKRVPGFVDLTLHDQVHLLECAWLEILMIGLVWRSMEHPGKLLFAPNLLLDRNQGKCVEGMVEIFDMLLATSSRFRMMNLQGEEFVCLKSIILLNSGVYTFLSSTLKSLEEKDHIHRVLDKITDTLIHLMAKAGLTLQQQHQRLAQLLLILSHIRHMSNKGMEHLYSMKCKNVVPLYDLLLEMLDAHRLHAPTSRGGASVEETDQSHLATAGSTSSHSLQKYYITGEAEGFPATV
Chain of UniProt P07550 (whole entry, looked up): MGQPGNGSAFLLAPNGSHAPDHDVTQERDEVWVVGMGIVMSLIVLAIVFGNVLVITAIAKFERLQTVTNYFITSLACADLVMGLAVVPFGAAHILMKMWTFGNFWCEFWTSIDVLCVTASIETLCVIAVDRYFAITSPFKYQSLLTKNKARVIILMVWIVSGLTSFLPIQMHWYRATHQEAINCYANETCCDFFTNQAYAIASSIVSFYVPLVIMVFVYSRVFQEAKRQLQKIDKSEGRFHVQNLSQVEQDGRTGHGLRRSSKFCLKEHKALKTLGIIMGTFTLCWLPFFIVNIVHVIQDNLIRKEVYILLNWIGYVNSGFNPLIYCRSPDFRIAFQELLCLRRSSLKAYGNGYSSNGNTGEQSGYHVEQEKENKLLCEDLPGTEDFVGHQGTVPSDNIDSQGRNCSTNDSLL
Chain of UniProt P14780 (whole entry, looked up): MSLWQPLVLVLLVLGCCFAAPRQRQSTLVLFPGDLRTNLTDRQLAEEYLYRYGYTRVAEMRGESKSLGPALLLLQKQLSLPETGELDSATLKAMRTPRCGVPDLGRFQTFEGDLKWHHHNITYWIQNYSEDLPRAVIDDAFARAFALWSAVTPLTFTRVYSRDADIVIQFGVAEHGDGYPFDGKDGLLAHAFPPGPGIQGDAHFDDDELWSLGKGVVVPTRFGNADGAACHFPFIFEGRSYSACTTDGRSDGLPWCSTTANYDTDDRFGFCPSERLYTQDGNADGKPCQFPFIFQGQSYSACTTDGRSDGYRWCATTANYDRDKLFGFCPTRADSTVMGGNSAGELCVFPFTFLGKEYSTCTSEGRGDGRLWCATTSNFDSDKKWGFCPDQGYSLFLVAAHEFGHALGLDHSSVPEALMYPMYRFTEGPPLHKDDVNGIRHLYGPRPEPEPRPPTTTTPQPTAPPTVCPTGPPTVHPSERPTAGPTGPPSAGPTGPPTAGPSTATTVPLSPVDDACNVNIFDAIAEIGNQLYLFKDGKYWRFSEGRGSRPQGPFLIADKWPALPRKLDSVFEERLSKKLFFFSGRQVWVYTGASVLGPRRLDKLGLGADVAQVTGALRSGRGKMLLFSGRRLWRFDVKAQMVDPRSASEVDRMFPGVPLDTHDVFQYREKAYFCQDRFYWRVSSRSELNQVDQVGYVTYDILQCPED
Chain of UniProt O14757 (whole entry, looked up): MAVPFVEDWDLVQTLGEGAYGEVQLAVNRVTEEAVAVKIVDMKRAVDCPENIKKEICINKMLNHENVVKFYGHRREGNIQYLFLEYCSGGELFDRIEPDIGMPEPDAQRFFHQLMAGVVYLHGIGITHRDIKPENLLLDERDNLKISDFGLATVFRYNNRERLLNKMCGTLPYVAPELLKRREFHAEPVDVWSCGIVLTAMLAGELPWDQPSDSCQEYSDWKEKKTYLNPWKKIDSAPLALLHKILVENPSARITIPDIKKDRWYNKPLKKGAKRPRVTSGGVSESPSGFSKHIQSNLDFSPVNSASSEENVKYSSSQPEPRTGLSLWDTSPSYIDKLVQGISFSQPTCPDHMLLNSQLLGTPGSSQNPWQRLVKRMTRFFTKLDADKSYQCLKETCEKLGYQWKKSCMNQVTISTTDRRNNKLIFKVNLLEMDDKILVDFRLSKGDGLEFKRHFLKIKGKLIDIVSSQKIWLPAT

| Compound | target | test | setting | inhibition |
| --- | --- | --- | --- | --- |
| C[C@H](NCc1ccc(-c2ccc(C(F)(F)F)cc2)cc1)C(N)=O | CHEK1 (Homo sapiens, UniProt O14757) | cell-free assay, competition with immobilised ligand | 1 µM | 0% |
| CN(/N=C/c1ccccc1C(=O)O)c1nc(-c2ccccc2Cl)cs1 | PTK6 (Homo sapiens, UniProt Q13882) | enzyme activity, inhibitor | 1 µM | -5.88% |
| CN[C@@H]1[C@H](O)[C@H](NC)[C@H]2O[C@]3(O)[C@H](O[C@@H]2[C@H]1O)O[C@H](C)C[C@H]3NC(=O)Cc1cc(Cl)ccn1 | NR3C1 (Homo sapiens, UniProt P04150) | ligand displacement, radioligand | 10 µM | -13% |
| CN(C)[C@H]1C[C@@]23CC[C@@]4(O2)C(=CC[C@]2(C)[C@@H](c5ccc6ccncc6c5)CC[C@H]24)C=C3[C@@H](O)[C@@H]1O | CDK4 (Homo sapiens, UniProt P11802) | ATP probe labelling, inhibitor, KiNativ profiling | 0.1 µM | -0.5% |
| O=C(Nc1cccnc1)c1cccc(C2(CNCc3ccc(F)c(F)c3)CC2)c1 | ache | enzyme activity, inhibitor, Ellman | 5 µM | 59.9% |
| CC(C)[C@H]1NC(=O)C[C@H]2/C=C/CCSSC[C@@H](NC1=O)C(=O)N[C@H](Cc1cccc3ccccc13)C(=O)NCC(=O)O2 | EPHB1 (Homo sapiens, UniProt P54762) | enzyme activity, inhibitor | 10 µM | 6.7% |
| COc1ccc(F)cc1S(=O)(=O)Nc1cnc2c(c1)C(=O)NCCO2 | Estrogen receptor (ESR1, Homo sapiens, UniProt P03372) | ligand displacement, radioligand | 10 µM | 8% |
| CS(C)(=O)=Nc1ccc(-c2ccc(-c3nc4cc(O[C@@H]5CO[C@H]6[C@@H]5OC[C@H]6O)[nH]c4cc3F)cc2)cc1 | EPHB3 (Homo sapiens, UniProt P54753) | enzyme activity, inhibitor | 10 µM | 13% |
| Cc1cc(Nc2nc(C[C@@]3(C(=O)O)CCN(Cc4cccc(Cl)c4F)[C@H](C)C3)cc(C)c2F)[nH]n1 | ADRB2 (Homo sapiens, UniProt P07550) | inhibitor | 10 µM | -1.24% |
| Fc1ccccc1CN1CCNCC1 | ache | enzyme activity, inhibitor, Ellman | 20 µM | 38% |
| BP(=O)(OC[C@H]1O[C@@H](n2c[n+](C)c3c(O)nc(N)nc32)[C@H](O)[C@@H]1O)OP(=O)([O-])CP(=O)([O-])OP(B)(=O)OC[C@H]1O[C@@H](n2c[n+](C)c3c(O)nc(N)nc32)[C@H](O)[C@@H]1O (stereo partly drawn) | mRNA decapping complex subunit 2, with Dcp1 (dcp2, Schizosaccharomyces pombe, UniProt O13828) |  | 200 µM, 0.5 h | 40.9% |
| CCOC(=O)[C@](CC)(CCCSCCOCCOCCNC(=O)c1ccc(-c2c3ccc(=N)c(S(=O)(=O)O)c-3oc3c(S(=O)(=O)O)c(N)ccc23)c(C(=O)O)c1)NC(=O)c1ccc(C2CC2)c(Cc2ccc(F)cc2)n1 | MMP9 (Homo sapiens, UniProt P14780) | enzyme activity, inhibitor | 10 µM | 21% |

Excerpt of the above:
| Compound | target | test | setting | inhibition |
| --- | --- | --- | --- | --- |
| CC(C)[C@H]1NC(=O)C[C@H]2/C=C/CCSSC[C@@H](NC1=O)C(=O)N[C@H](Cc1cccc3ccccc13)C(=O)NCC(=O)O2 | EPHB1 (Homo sapiens, UniProt P54762) | enzyme activity, inhibitor | 10 µM | 6.7% |
